Measured values of several laboratories.
Numbered parts are unrelated; each lists some results of a single study. Values joined by “and” are separate records of one study, mostly repeats; a detail may differ.
UniProt Q5XXA6, sequence (whole entry, unmodified, looked up): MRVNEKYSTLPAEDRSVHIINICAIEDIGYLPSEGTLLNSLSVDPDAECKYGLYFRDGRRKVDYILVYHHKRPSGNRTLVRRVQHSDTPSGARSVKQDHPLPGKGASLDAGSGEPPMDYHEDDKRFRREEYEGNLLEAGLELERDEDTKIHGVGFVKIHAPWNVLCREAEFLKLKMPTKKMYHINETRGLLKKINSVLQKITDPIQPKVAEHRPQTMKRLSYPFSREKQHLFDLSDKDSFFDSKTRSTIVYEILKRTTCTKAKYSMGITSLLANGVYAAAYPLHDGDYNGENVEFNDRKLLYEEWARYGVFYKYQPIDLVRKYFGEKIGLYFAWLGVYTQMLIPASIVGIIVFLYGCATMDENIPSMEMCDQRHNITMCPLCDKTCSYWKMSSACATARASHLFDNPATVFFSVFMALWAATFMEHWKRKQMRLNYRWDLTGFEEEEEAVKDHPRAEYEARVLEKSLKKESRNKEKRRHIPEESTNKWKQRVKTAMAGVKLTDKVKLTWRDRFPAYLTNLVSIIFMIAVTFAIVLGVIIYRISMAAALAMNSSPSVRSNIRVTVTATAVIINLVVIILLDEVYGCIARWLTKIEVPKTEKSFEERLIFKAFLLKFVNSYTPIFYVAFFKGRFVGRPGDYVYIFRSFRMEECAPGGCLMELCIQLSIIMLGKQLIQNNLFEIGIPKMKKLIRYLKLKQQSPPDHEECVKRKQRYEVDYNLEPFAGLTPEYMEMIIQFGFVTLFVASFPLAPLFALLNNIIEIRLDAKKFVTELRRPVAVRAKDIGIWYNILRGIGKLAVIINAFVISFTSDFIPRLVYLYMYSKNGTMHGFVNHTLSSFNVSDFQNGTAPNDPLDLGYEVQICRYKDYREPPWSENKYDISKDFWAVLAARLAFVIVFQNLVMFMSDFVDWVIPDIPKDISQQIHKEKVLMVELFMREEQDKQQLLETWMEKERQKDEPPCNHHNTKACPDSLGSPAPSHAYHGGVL
UniProt P25100, sequence (whole entry, looked up): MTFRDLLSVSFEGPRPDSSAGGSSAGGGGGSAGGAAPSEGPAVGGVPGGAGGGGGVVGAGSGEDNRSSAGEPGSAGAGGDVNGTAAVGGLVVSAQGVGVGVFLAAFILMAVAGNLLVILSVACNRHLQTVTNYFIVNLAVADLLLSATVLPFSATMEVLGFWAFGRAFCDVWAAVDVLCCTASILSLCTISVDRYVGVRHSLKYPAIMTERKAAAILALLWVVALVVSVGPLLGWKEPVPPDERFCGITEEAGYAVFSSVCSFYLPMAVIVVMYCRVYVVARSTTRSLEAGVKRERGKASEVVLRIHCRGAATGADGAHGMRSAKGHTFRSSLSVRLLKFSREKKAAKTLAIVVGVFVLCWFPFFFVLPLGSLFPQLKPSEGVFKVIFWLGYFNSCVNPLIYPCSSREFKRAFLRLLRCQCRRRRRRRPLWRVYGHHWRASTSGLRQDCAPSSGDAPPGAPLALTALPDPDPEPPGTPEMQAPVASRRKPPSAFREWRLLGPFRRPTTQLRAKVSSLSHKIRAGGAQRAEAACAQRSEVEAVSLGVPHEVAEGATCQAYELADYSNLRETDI

Sample 1 — observed: enzyme activity; mode: inhibitor; tested at: 0.5 µM; baseline: control; measurement: remaining activity
Target: SRSF protein kinase 3 (SRPK3, Homo sapiens, UniProt Q9UPE1)
UniProt Q9UPE1, sequence (whole entry, looked up): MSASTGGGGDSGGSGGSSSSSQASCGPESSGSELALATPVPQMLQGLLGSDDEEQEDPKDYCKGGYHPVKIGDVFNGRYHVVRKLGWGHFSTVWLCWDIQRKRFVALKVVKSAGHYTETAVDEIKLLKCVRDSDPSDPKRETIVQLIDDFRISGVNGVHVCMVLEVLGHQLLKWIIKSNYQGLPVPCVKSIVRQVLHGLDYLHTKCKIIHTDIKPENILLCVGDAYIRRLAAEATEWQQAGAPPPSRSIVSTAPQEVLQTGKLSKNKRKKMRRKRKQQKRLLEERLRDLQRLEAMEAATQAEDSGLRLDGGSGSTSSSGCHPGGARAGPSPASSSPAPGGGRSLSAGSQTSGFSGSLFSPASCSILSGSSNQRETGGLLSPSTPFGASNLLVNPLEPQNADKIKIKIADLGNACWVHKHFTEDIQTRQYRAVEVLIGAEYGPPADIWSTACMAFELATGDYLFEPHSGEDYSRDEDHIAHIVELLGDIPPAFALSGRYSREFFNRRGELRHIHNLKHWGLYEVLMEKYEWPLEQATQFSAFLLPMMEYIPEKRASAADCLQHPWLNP
Nc1nccc(-c2c(-c3ccc(F)cc3)ncn2C2CCNCC2)n1: 99.3%
CC#CC(=O)Nc1cc2c(Nc3ccc(F)c(Cl)c3)ncnc2cn1: 101%
O=S(=O)(NCCNC/C=C/c1ccc(Br)cc1)c1cccc2cnccc12: 98%
Oc1ccc(Nc2nc(-c3ccc(Cl)cc3)cs2)cc1: 98.1%
CCCC(=O)Oc1ccc2[nH]c(C(=O)c3cc4ccccc4[nH]3)cc2c1: 93.2%
O=C1NC(=O)C(c2c[nH]c3ccccc23)=C1c1c[nH]c2ccccc12: 90%
NC(=O)c1ccc(N(C(N)=O)c2c(F)cccc2F)nc1-c1ccc(F)cc1F: 105%
COc1cc(Nc2c(C#N)cnc3cc(OCCCN4CCN(C)CC4)c(OC)cc23)c(Cl)cc1Cl: 106%
CCc1[nH]c(-c2ccc(OC)cc2)nc1-c1ccncc1: 102%
N#CC(=C(N)Sc1ccc(N)cc1)c1ccccc1C(F)(F)F: 96.3%
COc1ccc(S(=O)(=O)N(CCO)c2ccccc2CN(C)CC=Cc2ccc(Cl)cc2)cc1: 97.3%
CC(C)(C)n1nc(Cc2cccc3ccccc23)c2c(N)ncnc21: 92.9%
CSc1nc(-c2ccnc(N[C@@H](C)c3ccccc3)c2)c(-c2ccc(F)cc2)[nH]1 (racemic): 92.8%
Cc1cc(Nc2nc(-c3ccccc3)nc3ccccc23)n[nH]1: 61.5%
Nc1nc(Nc2ccc(S(N)(=O)=O)cc2)nn1C(=O)c1c(F)cccc1F: 86.2%
Cc1ccc(NC2=CC(=O)c3sc(C)nc3C2=O)cc1: 98.2%
CC(=O)c1ccc(N2CCOCC2)cc1O: 104%
Cc1cncc2cccc(S(=O)(=O)N3CCCN(C(=O)CN)C[C@@H]3C)c12: 99.9%
Fc1ccc(-c2nc3n(c2-c2ccncc2)CCS3)cc1: 98.5%
Nc1ncnc2c1cnn2-c1ccccc1: 96.4%
O=C1Cc2c([nH]c3ccc([N+](=O)[O-])cc23)-c2ccccc2N1: 92.7%

Sample 2 — cell line: A-375; tested at: 100 µM; time: 36 h; measurement: viability
Cn1c(=O)cc(N2CCC[C@@H](N)C2)n(Cc2cc(F)ccc2C#N)c1=O: 118% and 108%
COc1cc(O)c(C(=O)Nc2nc(C(=O)NCCN(C(C)C)C(C)C)cs2)cc1OC: 102%
Nc1ncnc2c1ncn2[C@@H]1O[C@H](COP(=O)(O)O)[C@@H](O)[C@H]1O: 113%
CC(=O)[C@H]1CC[C@H]2[C@@H]3CCC4=CC(=O)CC[C@]4(C)[C@H]3CC[C@]12C: 2.61%
CC(=O)OC(C)C[N+](C)(C)C (stereo not shown): 106%
CN1CC(=O)N2[C@H](c3ccc4c(c3)OCO4)c3[nH]c4ccccc4c3C[C@@H]2C1=O: 90%
Cn1cnc([N+](=O)[O-])c1Sc1ncnc2nc[nH]c12: 60.2%
O=S(=O)(O)CCS: 92.3%
Cc1ccc(C(=O)c2cc(O)c(O)c([N+](=O)[O-])c2)cc1: 30.1%
CC(C)(CO)[C@@H](O)C(=O)NCCCO: 102%
O=C(NCCO[N+](=O)[O-])c1cccnc1: 85.7%
CN1CCOC(c2ccccc2)c2ccccc2C1 (stereo not shown): 105%
NC1C(O)O[C@H](CO)C(O[C@@H]2O[C@H](CO)C(O[C@@H]3O[C@H](CO)[C@@H](O)[C@H](O)[C@H]3N)[C@H](O)C2N)C1O (stereo partly shown): 122%
COc1cc(C[C@H]2C(=O)OC[C@@H]2Cc2ccc(OC)c(OC)c2)ccc1O: 75.3%

Sample 3 — Compound: C=CCc1ccc(O)c(-c2cc(CC=C)ccc2O)c1; observed: chloride current; technique: whole-cell voltage clamp; measurement: IC50
Anoctamin-1 (ANO1, Homo sapiens, UniProt Q5XXA6, del476-501/E649D); inhibitor; E623D mutant at -80 mV: 94.4 µM
Anoctamin-1 (ANO1, Homo sapiens, UniProt Q5XXA6, del476-501/E649I); inhibitor; E623I mutant at -20 mV: 136 µM
Anoctamin-1 (ANO1, Homo sapiens, UniProt Q5XXA6, del476-501/M544T); inhibitor; 100 mV holding voltage: 31.9 µM
Anoctamin-1 (ANO1, Homo sapiens, UniProt Q5XXA6, del476-501/E649K); inhibitor; E623K mutant at 20 mV: 176 µM
Anoctamin-1 (ANO1, Homo sapiens, UniProt Q5XXA6, del476-501/K629R); inhibitor; 100 mV holding voltage: 251 µM
Anoctamin-1 (ANO1, Homo sapiens, UniProt Q5XXA6, del476-501/F807A); membrane voltage 60 mV: 19.9 µM

Single results of other studies
Cn1cncc1[C@@](O)(COc1ccc(C#N)cc1-c1ccc(OC(F)(F)F)cc1)c1ccc(C#N)cc1 — normal cells (HEK293T; high-content imaging; 10 µM, 12 h): 93.7% and 85.7%
C[C@H](c1cccc(C#N)c1)n1cc(Cl)cc(C(N)=O)c1=N — Ki (Alpha-1D adrenergic receptor (ADRA1D, Homo sapiens, UniProt P25100); binder, radioligand binding): 0.0107 µM

For quick reference, copied from above (sample 2):
O=C(NCCO[N+](=O)[O-])c1cccnc1: 85.7%
Cn1cnc([N+](=O)[O-])c1Sc1ncnc2nc[nH]c12: 60.2%
Nc1ncnc2c1ncn2[C@@H]1O[C@H](COP(=O)(O)O)[C@@H](O)[C@H]1O: 113%
CC(=O)OC(C)C[N+](C)(C)C (stereo not shown): 106%
COc1cc(O)c(C(=O)Nc2nc(C(=O)NCCN(C(C)C)C(C)C)cs2)cc1OC: 102%
